Measured values of several laboratories.
Each line is one published result; not all experiments were run side by side. ± marks the error that the study gave.

CN(C)CCNC(=O)c1cc(-c2ccccc2)nc2ccccc12
half-life (mouse liver microsomes): 0.373 h

Cc1cccc(C)c1OCC(=O)N[C@@H](Cc1ccccc1)[C@H](C[C@H](Cc1ccccc1)NC(=O)[C@H](C(C)C)N1CCCNC1=O)OC(=O)[C@@H](N)CC(C)C
half-life (DPBS; 50 µM, pH 4, 37 °C): 29.6 ± 0.4 h

CC[C@H](C)[C@H](NC(=O)CNC(=O)CNC(=O)c1ccc2c(c1)C(=O)OC21c2ccc(O)cc2Oc2cc(O)ccc21)C(=O)N[C@@H](Cc1ccc(O)cc1)C(=O)N(C)CC(=O)N[C@@H](C)C(=O)N1CCC[C@H]1C(=O)N(C)[C@@H](Cc1ccccc1)C(=O)N[C@@H](CCCCN)C(=O)N[C@@H](CCCCN)C(=O)N[C@@H](CCCCN)C(=O)N[C@@H](C)C(N)=O
half-life (CE-LIF; Baf/BCR-ABL cell cytosolic lysate; 1 µM, pH 7.4, 37 °C): 0.0917 h

CC(=O)N[C@@H](Cc1cnc[nH]1)C(=O)N[C@H](Cc1ccccc1)C(=O)N[C@@H](CCCNC(=N)N)C(=O)N[C@@H](Cc1c[nH]c2ccccc12)C(=O)NCCCOCCOCCOCCCNC(=O)COCC(N)=O
half-life (LC-MS/MS; mouse serum; 10 µM, 37 °C): 12.5 h

CC(C)(C)c1nc(-c2ccc(NC(=O)c3cccs3)cc2Cl)no1
half-life (chemical stability; buffer; 5 µM, pH 2.0, 37 °C): 0.173 ± 0.095 h

[2H]C([2H])(c1ccccc1)C([2H])([2H])N1C(=O)CC(=O)N(C([2H])([2H])C([2H])([2H])c2ccccc2)C1=O
half-life (metabolic stability; human liver microsomes): 1.07 h

Oc1cc2nc(c1)CNCc1cc(O)cc(n1)CNC2
half-life (mouse liver microsomes; 2 µM, added: NADPH): > 2 h

CC(=O)N[C@H](CC(=O)O)C(=O)N[C@H](Cc1c[nH]c2ccccc12)C(=O)N[C@H](Cc1ccccc1)C(=O)N[C@H](CCCCN)C(=O)N[C@H](C)C(=O)N[C@H](Cc1ccccc1)C(=O)N[C@H](Cc1ccc(O)cc1)C(=O)N[C@H](CC(=O)O)C(=O)N[C@H](CCCCN)C(=O)N[C@@H](C(=O)N[C@H](C)C(=O)N[C@H](CCC(=O)O)C(=O)N[C@H](CCCCN)C(=O)N[C@H](Cc1ccccc1)C(=O)N[C@H](CCCCN)C(=O)N[C@H](CCC(=O)O)C(=O)N[C@H](C)C(=O)N[C@H](Cc1ccccc1)C(N)=O)C(C)C
half-life (statin-treated high-risk CHD patients, plasma; oral, 100 mg daily, day 13, mean, detected subjects): 0.81 h

Cn1cc(C(N)=O)c(NC2C3CC4CC2CC(OS(=O)(=O)O)(C4)C3)c2ccnc1-2 (stereo not shown)
half-life (Japanese adults, normal hepatic function, plasma; oral, 150 mg single dose): 12.5 h

O=C(Nc1ccc(-c2noc(C3CC3)n2)c(Cl)c1)c1cccs1
half-life (buffer; 5 µM, pH 10.0, 37 °C): 0.878 ± 0.207 h

CC(C)[C@H](NC(=O)CNC(=O)[C@H](CCC(N)=O)NC(=O)[C@H](C)N)C(=O)O
half-life (healthy volunteers, LPS endotoxaemia, plasma; intravenous, 45 mg/kg/h, 2 h infusion, geometric mean, added: LPS 2 ng/kg): 0.11 h

O=C(Cc1cccc(I)c1)N[C@H]1CCOC1=O
half-life (TRIS buffer with 0.5% DMSO; 50 µM, pH 7, 37 °C): 8.5 to 11 h

C[C@H](N)C(=O)OCCOCn1cnc2c(=O)[nH]c(N)nc21
half-life (DPBS; pH 6.0, 34 °C, chemical hydrolysis): 47 ± 5 h

O=[N][Fe]1([N]=O)[S](CCO)[Fe]([N]=O)([N]=O)[S]1CCO
half-life (stability; mouse plasma; 37 °C): 4.5 ± 0.2 h

COC1CN([C@H]2CC[C@H]([C@@]3(C)Oc4c(Cl)cc(C(=O)NCc5c(SC)cc(C)[nH]c5=O)c(C)c4O3)CC2)C1
half-life (patients with advanced tumours, plasma; oral, once daily, phase I): ~8 h

COc1cc(/C=C/C(=O)/C=C/c2ccc(O)c(OC)c2)ccc1O
half-life (nano-LC-MS; serum-free RPMI 1640 medium; 37 °C): ~3 h

CCN(c1nc(N[C@H](CC(N)=O)C(=O)NC)nc(N2CCN(c3ccccc3C#N)CC2)n1)C1CCCCC1
half-life (mouse plasma): 1.7 ± 0.2 h

CCC(CC)[C@H](NC(C)=O)[C@@H]1[C@H](O)[C@@H](C(=O)N[C@H](C(=O)O)[C@@H](C)CC)C[C@H]1NC(=N)N
half-life (phosphate buffer; pH 7.4, 37 °C, chemical stability): 25.7 ± 0.8 h

[2H]C1([2H])C[C@@H](C[C@@H](C#N)NC(=O)[C@@H]2[C@@H]3[C@H](CN2C(=O)[C@@H](NC(=O)C(F)(F)F)C(C)(C)C)C3(C)C)C(=O)N1
half-life (mouse liver microsomes; microsomes 0.5 mg/mL): 0.258 h

CCC(CC)[C@H](NC(C)=O)[C@@H]1[C@H](O)[C@@H](C(=O)OCCOC(=O)[C@@H](N)C(C)C)C[C@H]1NC(=N)N
half-life (phosphate buffer; pH 6.8, 37 °C, chemical stability): 3.57 ± 0.517 h

NS(=O)(=O)c1ccc(NC(=O)NN[C@@H]2O[C@H](CO)[C@@H](O)[C@H](O)[C@H]2O)cc1
half-life (mouse liver microsomes; 1 µM): 23.9 h

COc1cc(C)c(Cc2ccc(O)cc2)cc1[C@@H]1S[C@H](CO)[C@@H](O)[C@H](O)[C@H]1O
half-life (Japanese T2DM patients, plasma; 0.5 mg luseogliflozin, day 7, once daily): 18.6 ± 2.45 h

C[C@H](NC(=O)COC(=O)[C@H](C)NC(=O)CO)C(=O)O
half-life (water; pH 2, 25 °C): 674 h

CCC(CC)O[C@@H]1C=C(C(=O)OC(OC(=O)[C@@H](N)C(C)C)C(C)C)C[C@H](NC(=N)N)[C@H]1NC(C)=O (single isomer, unassigned)
half-life (chemical stability; SGF without pepsin; pH 1.2, 37 °C): stable

CN[C@H](C)C(=O)NCC(=O)N[C@@H](Cc1ccc(O)cc1)C(=O)N[C@H]1CCCCNC(=O)C[C@@H](C(=O)N[C@@H](Cc2cccc3ccccc23)C(=O)N[C@@H](Cc2cccc3ccccc23)C(=O)N[C@H](CCC(=O)O)C(=O)O)NC(=O)[C@H](Cc2ccc(O)cc2)NC(=O)[C@H]([C@@H](C)O)NC(=O)[C@@H]2CCCN2C(=O)[C@H](CC(N)=O)NC1=O
half-life (human plasma; 37 °C): ≥ 24 h

Nc1nc2c(ncn2COCCOC(=O)[C@@H](N)CO)c(=O)[nH]1
half-life (DPBS; pH 6.0, 34 °C, chemical hydrolysis): 226 ± 52 h

CCC(C)C(N)C(=O)OC(C)OC(=O)C1=CC(N=C(N)N)C(NC(C)=O)C(C(O)C(O)CO)O1 (mixture of isomers)
half-life (hydrochlorate buffer; pH 1.2, 37 °C, chemical hydrolysis): > 4 h

CC(C)[C@@H]1NC(=O)[C@@H](NC(=O)[C@H](Cc2ccc(O)cc2)NC(=O)[C@@H]2CCCN2C(=O)[C@H](C)N)CSSC[C@@H](C(=O)O)NC(=O)[C@H](CO)NC(=O)[C@H](Cc2c[nH]c3ccccc23)NC(=O)[C@H](CO)NC(=O)CNC(=O)[C@H](CCCNC(=N)N)NC(=O)[C@H](Cc2ccc(O)cc2)NC1=O
half-life (residual EphA4 binding inhibition; C2C12 conditioned medium; 200 µM, 37 °C): 8 to 12 h

Cc1ccccc1OCC(N)c1ccccc1 (stereo not shown)
half-life (chemical stability, HPLC; pH 3, 37 °C): > 360 h

Cc1ccccc1-c1cc(N2CC[N+](C)([O-])CC2)ncc1N(C)C(=O)C(C)(C)c1cc(C(F)(F)F)cc(C(F)(F)F)c1
half-life (healthy volunteers, plasma; oral, dose not given, netupitant-palonosetron fixed-dose combination): 55.9 h

COc1cc2nc(N3CCCCC3)nc(NC3CCN(C)CC3)c2cc1OC
half-life (rat plasma; plasma stability): > 4 h
